Measured values collected from several papers.
Parts stem from different laboratories: compare values within a part only.

Series 1 — method: protein-binding microarray; form: double-stranded DNA, one strand shown; medium: in vitro; concentration: 250 nM; setting: 60-bp whole probe; together with: salmon DNA 0.4 mg/ml; relative to: random background probes; direction: higher = stronger binding; measurement: log fluorescence; constant ends, left off below: GCCTAGCAC … GTCTTGATTCGCTTGACGCTGCTG
Target: Interferon regulatory factor 7, full length, phosphomimetic (IRF7, Homo sapiens, UniProt Q92985, residues 1-503, S101K/S471D/S472D/S475D/S476D/S477D/S483D/S484D/S487D)
Sequence of UniProt Q92985 (whole entry, unmodified, looked up): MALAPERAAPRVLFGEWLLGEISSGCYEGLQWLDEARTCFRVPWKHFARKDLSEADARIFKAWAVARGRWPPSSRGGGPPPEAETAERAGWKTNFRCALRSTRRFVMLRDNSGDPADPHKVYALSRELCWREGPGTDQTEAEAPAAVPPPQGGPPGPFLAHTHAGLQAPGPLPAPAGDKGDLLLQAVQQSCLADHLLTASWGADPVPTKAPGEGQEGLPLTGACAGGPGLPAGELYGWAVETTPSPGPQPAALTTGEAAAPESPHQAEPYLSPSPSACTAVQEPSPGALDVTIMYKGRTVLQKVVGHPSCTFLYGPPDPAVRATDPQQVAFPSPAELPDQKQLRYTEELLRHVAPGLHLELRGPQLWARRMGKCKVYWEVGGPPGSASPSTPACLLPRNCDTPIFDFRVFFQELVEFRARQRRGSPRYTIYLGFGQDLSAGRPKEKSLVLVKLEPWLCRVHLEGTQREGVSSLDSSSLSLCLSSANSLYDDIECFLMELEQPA
GACTGTATCGGTCTCGGGACGTGCTAG: 0.0943 z-score
GACAATTTCGGGTATCGAGACGTGCTA: 1.25 z-score
GACGATAGCAGACTGGAGACGTGCTAG: -0.678 z-score
TTAGGTGTCCTACTGCTTTAGTGCTAG: -0.404 z-score
GACGATCTCAGTTTCGAGAAGTGCTAG: 1.78 z-score
TCAACTCTGGAGGTTGAGACTGTGCTA: -0.719 z-score

Series 2 — method: RNA Bind-n-Seq; form: RNA; medium: in vitro; concentration: 200 nM; setting: whole 134-nt RNA, ends assumed; together with: 150 mM KCl; relative to: input library; direction: higher = stronger binding; measurement: log2 enrichment
Target: Fragile X messenger ribonucleoprotein 1, C-terminal low-complexity region (Fmr1, Mus musculus, UniProt P35922)
GGGAGUUCUACAGUCCGACGAUCUGCUUCAUCGCCUUGUGCUCCUGCCCCUGGGAGCUGUGGAUCCCAGAUCCAGAUGACAGCCCACCUUGCUGGCAGGAUGCGCCAAUCCCCUGGAAUUCUCGGGUGUCAAGG: -0.332
GGGAGUUCUACAGUCCGACGAUCCACAGACAACACGCACCCACACAGACCCAGAGGGAAGGGGUUGGGAUGGGGACAGGGUGCACAGCAGGGCGGGGUAGGACCCCAGCCCCUUGGAAUUCUCGGGUGUCAAGG: 1.31
GGGAGUUCUACAGUCCGACGAUCAAACAGCUCUAUAACAAAAUACAAUGCGGGUUCAUGUUAAUGUUUUUAUCUCUAACAGGUUGGUUUCAGUGCUGAUGAAACUUGGGACUCUGGAAUUCUCGGGUGUCAAGG: -0.638
GGGAGUUCUACAGUCCGACGAUCGAUGAGACAGAUGCUUCAUCAGCAGUGAAAGUGAAAAGAGCAGUCCAGAAAACAUCCGAUUUAAUAGUGUUGGGUCUCCCAUGGAAAACAUGGAAUUCUCGGGUGUCAAGG: -0.253

Series 3 — method: RNA Bind-n-Seq; form: RNA; medium: in vitro; concentration: not given; relative to: input RNA pool; direction: higher = stronger binding; measurement: bound/input enrichment
Target: RING finger protein unkempt homolog, zinc fingers 1-6, GST-SBP tag (UNK, Homo sapiens, UniProt Q9C0B0, residues 30-357)
Sequence of UniProt Q9C0B0 (30-357, looked up): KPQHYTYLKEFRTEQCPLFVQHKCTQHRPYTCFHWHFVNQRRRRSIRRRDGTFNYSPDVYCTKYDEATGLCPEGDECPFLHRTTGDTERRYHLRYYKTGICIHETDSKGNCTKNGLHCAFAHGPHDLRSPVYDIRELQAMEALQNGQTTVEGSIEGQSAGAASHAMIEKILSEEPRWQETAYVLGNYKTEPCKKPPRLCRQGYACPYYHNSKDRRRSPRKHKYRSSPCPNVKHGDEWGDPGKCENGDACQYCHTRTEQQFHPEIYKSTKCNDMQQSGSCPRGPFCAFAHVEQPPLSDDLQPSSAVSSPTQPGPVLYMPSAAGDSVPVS
Setting: RNA with constant flanks, human-mouse chimeric sites, ends assumed
GGGAGUUCUACAGUCCGACGAUCUUUGUUUUUAUGCUAAGCACACGUGCUGGUGGUCUGGGCAUCAAUCUUGCAACUGCUGAUGUAGUAAUUUUAUAUGACUCAGAUUGGAAUCCGCAAGUUGAUCUUCAGGCUAUGGACCGUCAACAGAGGAUUGAGCAUCA: 0.471 ratio
GGGAGUUCUACAGUCCGACGAUCCUGAGGAUACCACUGAAGAGACCUUAAAAGAAUCAUUUGAGGGCUCUGUUCGUGCAAAGGAUAGUUAUGAUCGGGAAACUGGUUCUUCCAAAGGGUUUGGUUUUGUAGACUUUAAUAGUGCAACAGAGGAUUGAGCAUCA: 0.757 ratio
GGGAGUUCUACAGUCCGACGAUCCAGCCUCAGAGCCCAGACUUCCUGGAUAUUACCAACCCUAAAGCGGUAUUAGAAAAUGCACUUAGGAACUUUGCCUGUCUGACGACUGGAGAUGUGAUUGCUAUCAACUACAAUGAGAAGCAACAGAGGAUUGAGCAUCA: 1.44 ratio
GGGAGUUCUACAGUCCGACGAUCGCGGCAGAAUCAUGGAGGACAUAAUGCAGCUCCCCAAAGCGCGCGUCAACGCCAGCAUGUUACCACAAUUCAUCGACCGGCCCGUGUGCUUCGUGGGGAGGCUGGAAAAGAUUCAUCCCACAACAGAGGAUUGAGCAUCA: 0.14 ratio

Further values, each from its own experiment
PhoQ, residues 284 288 289 292 302 303 TASMAF — fold induction (PhoP, residues 12 14 15 18 19 LHHVQ (Escherichia coli, UniProt P23836); Sort-seq, refers to: YFP reporter; E. coli; PhoQ-PhoP variant library, together with: 10 µM Mg2+; relative to: high Mg2+ state, higher = stronger signaling): 22
